Experimental data pooled from the literature.
Compare with care: the assays were run in different laboratories. ± marks the error that the study gave.
CYP2D6: Cytochrome P450 2D6 (CYP2D6, Homo sapiens, UniProt P10635)
Sequence of UniProt P10635 (whole entry, looked up): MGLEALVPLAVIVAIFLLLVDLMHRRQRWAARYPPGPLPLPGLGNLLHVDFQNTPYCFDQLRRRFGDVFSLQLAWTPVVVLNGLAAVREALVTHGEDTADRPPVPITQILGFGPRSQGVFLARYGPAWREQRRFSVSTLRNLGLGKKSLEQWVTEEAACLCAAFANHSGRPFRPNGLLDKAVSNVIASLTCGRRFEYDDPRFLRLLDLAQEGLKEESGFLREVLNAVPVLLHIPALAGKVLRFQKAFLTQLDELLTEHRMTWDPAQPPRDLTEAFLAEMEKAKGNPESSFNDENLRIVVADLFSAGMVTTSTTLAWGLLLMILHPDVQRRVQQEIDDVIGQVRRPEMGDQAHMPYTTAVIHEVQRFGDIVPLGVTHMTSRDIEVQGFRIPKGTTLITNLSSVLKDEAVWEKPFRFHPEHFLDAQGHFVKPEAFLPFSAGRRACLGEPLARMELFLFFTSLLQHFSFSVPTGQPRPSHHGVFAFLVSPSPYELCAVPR
Sequence of UniProt Q12809 (whole entry, looked up): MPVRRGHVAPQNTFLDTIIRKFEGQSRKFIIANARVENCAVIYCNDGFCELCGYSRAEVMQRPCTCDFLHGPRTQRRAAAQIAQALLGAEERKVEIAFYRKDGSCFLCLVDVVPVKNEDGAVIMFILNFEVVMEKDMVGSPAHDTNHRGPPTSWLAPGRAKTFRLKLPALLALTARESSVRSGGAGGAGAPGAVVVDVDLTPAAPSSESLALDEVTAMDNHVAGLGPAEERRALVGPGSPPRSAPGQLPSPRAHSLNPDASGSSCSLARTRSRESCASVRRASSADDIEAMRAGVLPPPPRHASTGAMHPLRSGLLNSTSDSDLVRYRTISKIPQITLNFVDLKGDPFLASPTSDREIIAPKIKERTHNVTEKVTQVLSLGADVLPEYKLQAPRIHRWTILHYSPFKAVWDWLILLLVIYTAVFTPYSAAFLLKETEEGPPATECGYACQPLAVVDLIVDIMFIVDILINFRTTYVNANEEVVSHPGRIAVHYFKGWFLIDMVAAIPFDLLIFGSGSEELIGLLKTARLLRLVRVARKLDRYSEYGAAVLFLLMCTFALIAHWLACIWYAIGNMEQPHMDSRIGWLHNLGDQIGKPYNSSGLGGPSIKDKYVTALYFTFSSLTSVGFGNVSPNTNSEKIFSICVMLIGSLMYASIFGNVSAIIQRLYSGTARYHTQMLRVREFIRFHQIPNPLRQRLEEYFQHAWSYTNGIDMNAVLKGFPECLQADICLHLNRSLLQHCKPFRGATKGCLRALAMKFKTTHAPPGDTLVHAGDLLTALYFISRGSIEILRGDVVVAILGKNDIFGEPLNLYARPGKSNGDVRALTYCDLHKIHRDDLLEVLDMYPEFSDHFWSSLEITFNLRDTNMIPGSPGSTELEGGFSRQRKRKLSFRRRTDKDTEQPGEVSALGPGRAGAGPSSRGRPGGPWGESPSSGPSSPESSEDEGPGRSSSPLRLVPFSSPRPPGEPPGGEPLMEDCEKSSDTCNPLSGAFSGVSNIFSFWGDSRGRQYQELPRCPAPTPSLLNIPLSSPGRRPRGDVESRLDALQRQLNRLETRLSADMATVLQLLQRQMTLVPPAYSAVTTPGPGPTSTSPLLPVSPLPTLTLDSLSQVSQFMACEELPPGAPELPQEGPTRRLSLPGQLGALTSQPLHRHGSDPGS

CN1CC[C@@H](c2c(O)cc(O)c3c(=O)cc(-c4ccc(C(F)(F)F)cc4Cl)oc23)[C@@H]1CO — patients with adverse event (item: Sepsis; relapsed AML; oral, 150 mg, grade 3-4, intermittent dosing): 50%
CC[C@H](C)[C@H](NC(=O)[C@H](CC(C)C)NC(=O)[C@H](CCCNC(=N)N)NC(=O)[C@H](CCCNC(=N)N)NC(=O)[C@H](CCCNC(=N)N)NC(=O)[C@H](CCCNC(=N)N)NC(=O)[C@H](CC(C)C)NC(=O)[C@@H](NC(=O)[C@@H](NC(=O)[C@@H](NC(=O)[C@H](CCCNC(=N)N)NC(=O)[C@H](CCCNC(=N)N)NC(=O)[C@H](CCCNC(=N)N)NC(=O)[C@@H](N)CCCNC(=N)N)C(C)C)[C@@H](C)CC)[C@@H](C)CC)C(=O)N[C@@H](CO)C(=O)N[C@@H](Cc1ccccc1)C(=O)N[C@@H](CO)C(=O)N[C@@H](C)C(=O)N[C@@H](Cc1ccc(O)cc1)C(N)=O — hemolysis (human erythrocytes; 400 µM, 1 h; baseline: Triton X-100): 40%
CO[C@H]1C[C@@H]2CC[C@@H](C)[C@@](O)(O2)C(=O)C(=O)N2CCCC[C@H]2C(=O)O[C@H]([C@H](C)C[C@@H]2CC[C@@H](OC(=O)NCCOCCOCCOCCOCCOCCOCCOCCOCCC(=O)N3CCc4cc(Cn5nc(-c6ccc7oc(N)nc7c6)c6c(N)ncnc65)ccc4C3)[C@H](OC)C2)C[C@@H](O)[C@H](C)/C=C(\C)[C@@H](O)[C@@H](OC)C(=O)[C@H](C)C[C@H](C)/C=C/C=C/C=C/1C — decreased appetite incidence (patients with advanced solid tumours; intravenous, 10 mg weekly, grade 3 or higher): 0%
COc1cc2c(Oc3ccc4[nH]c(C)cc4c3F)ccnc2cc1OCC1(N)CC1 — sinus arrhythmia incidence (paediatric refractory sarcoma patients; 12 mg): 0%
Cc1cc(C(=O)NC(C)(C)COc2cccc3c2C(N)=NS(=O)(=O)N3)cc(C)n1 — revertant ratio (Salmonella typhimurium; Ames test, initial; TA1535; 50.0 µg/plate, together with: rat liver S9; baseline: solvent control): 0.8
CCC1(c2ccccc2)C(=O)NC(=O)NC1=O — CYP2B6 activity induction (primary human hepatocytes; inducer; 1000 µM, unit not given; baseline: vehicle): 4.66
O=c1ccc2ccccc2o1 — chance response (NHEK; AhR translocation; concentration not given, 6 h): 0.01%
CC[C@H](C)[C@H](NC(=O)[C@H](CC(C)C)NC(=O)[C@@H](NC(=O)[C@H](CCCNC(=N)N)NC(=O)[C@H](CCCNC(=N)N)NC(=O)[C@H](CCCNC(=N)N)NC(=O)[C@@H](N)CCCNC(=N)N)[C@@H](C)CC)C(=O)N[C@@H](CCCNC(=N)N)C(=O)N[C@@H](CCCNC(=N)N)C(=O)N[C@H](C(=O)N[C@@H](CC(C)C)C(=O)N[C@@H](CCCNC(=N)N)C(=O)N[C@@H](CC(C)C)C(=O)N[C@@H](CCCNC(=N)N)C(=O)N[C@@H](CO)C(=O)N[C@@H](CO)C(=O)N[C@@H](C)C(=O)N[C@@H](Cc1ccc(O)cc1)C(N)=O)C(C)C — hemolysis (human erythrocytes; 400 µM, 1 h; baseline: Triton X-100): 11%
COc1ccc(-n2nc(C(C)=O)s/c2=N\N=C(/C)c2ccc(NC(C)=O)cc2)cc1 — viability (WI-38; 5 µM, 24 (unit not given)): 3.98%
COc1cccc(-c2n[nH]c(SCc3ccccn3)n2)c1OC — revertant colonies per plate (Salmonella typhimurium; Ames test, preincubation; TA1537; 0.25 mg/plate, without S9): 10
CNC1(c2ccccc2Cl)CCCCC1=O (racemic) — inhibition (Voltage-gated inwardly rectifying potassium channel KCNH2 (KCNH2, Homo sapiens, UniProt Q12809); radioligand binding, radioligand displacement; 30 µM): 0%
CNC(C)Cc1ccc2c(c1)OCO2 (stereo not shown) — remaining activity (CYP2D6; enzyme activity; 300 µM, preincubation without NADPH, together with: dextromethorphan O-demethylation): 24.9%
CC(=O)N1CCC(C(=O)N2CCN3C(=O)c4cc(-c5ccccc5)ccc4NC(=O)C3C2)CC1 (stereo not shown) — revertants per plate (Salmonella typhimurium; TA98; 5000 µg/plate): 30.5
CC[C@H](C)[C@H](NC(=O)[C@H](CCCNC(=N)N)NC(=O)[C@H](CCCNC(=N)N)NC(=O)[C@H](CCCNC(=N)N)NC(=O)[C@H](CCCNC(=N)N)NC(=O)[C@H](CCCNC(=N)N)NC(=O)[C@@H](N)CCCNC(=N)N)C(=O)N[C@@H](CO)C(=O)N[C@@H](Cc1ccccc1)C(=O)N[C@@H](CC(C)C)C(=O)NCC(=O)N[C@@H](CO)C(=O)N[C@@H](CCCCN)C(=O)N[C@@H](CCCCN)C(=O)N[C@@H](CCCCN)C(=O)N[C@@H](CCCCN)C(=O)N[C@@H](CC(C)C)C(=O)N[C@@H](CC(C)C)C(=O)N[C@@H](CCCCN)C(=O)N[C@@H](CCCNC(=N)N)C(N)=O — hemolysis (human erythrocytes; 400 µM, 1 h; baseline: Triton X-100): 3%
COc1ncnn2ccc(-c3cnc4nc(C)n(Cc5nnc([C@@H](C)F)o5)c4c3)c12 — patients with hyponatremia (human; oral, dose not given, grade 2): 14.3%
CC(C)CC(=O)OC[C@H]1O[C@@](C#N)(c2ccc3c(N)ncnn23)[C@H](O)[C@@H]1O — remaining compound (CYP2D6; metabolic stability; recombinant enzyme; 1 µM, 30 min): 97.3 ± 2.24%
[Cl-].[Cl-].[Pt+2].[Ru+2].c1ccc(-c2nc3ccccc3nc2-c2ccccn2)nc1.c1cnc2c(c1)ccc1cccnc12.c1cnc2c(c1)ccc1cccnc12 — hatching rate (Danio rerio; embryos; 75 µM, 72 h): 6.67 ± 3.9%
CC[C@H](C)[C@H](NC(=O)[C@H](CCCCN)NC(=O)[C@H](CCCCN)NC(=O)[C@H](CCCCN)NC(=O)[C@H](CCCCN)NC(=O)[C@H](CCCCN)NC(=O)[C@@H](N)CCCCN)C(=O)N[C@@H](CO)C(=O)N[C@@H](Cc1ccccc1)C(=O)N[C@@H](CC(C)C)C(=O)NCC(=O)N[C@@H](CO)C(=O)N[C@@H](CCCCN)C(=O)N[C@H](C(=O)N[C@H](C(=O)N[C@H](C(=O)N[C@@H](CC(C)C)C(=O)N[C@@H](CC(C)C)C(=O)N[C@@H](CCCCN)C(=O)N[C@@H](CCCNC(=N)N)C(N)=O)C(C)C)C(C)C)C(C)C — hemolysis (human erythrocytes; 400 µM, 1 h; baseline: Triton X-100): 20%
O=S(=O)(Nc1ccccc1)c1ccc(NC(=S)Nc2ccccc2)cc1 — blood cell fraction (item: BA%; male mouse, blood; oral, 5 mg/kg daily, 14 days): 0.22%

For quick reference, copied from above:
CO[C@H]1C[C@@H]2CC[C@@H](C)[C@@](O)(O2)C(=O)C(=O)N2CCCC[C@H]2C(=O)O[C@H]([C@H](C)C[C@@H]2CC[C@@H](OC(=O)NCCOCCOCCOCCOCCOCCOCCOCCOCCC(=O)N3CCc4cc(Cn5nc(-c6ccc7oc(N)nc7c6)c6c(N)ncnc65)ccc4C3)[C@H](OC)C2)C[C@@H](O)[C@H](C)/C=C(\C)[C@@H](O)[C@@H](OC)C(=O)[C@H](C)C[C@H](C)/C=C/C=C/C=C/1C — decreased appetite incidence (patients with advanced solid tumours; intravenous, 10 mg weekly, grade 3 or higher): 0%
COc1cc2c(Oc3ccc4[nH]c(C)cc4c3F)ccnc2cc1OCC1(N)CC1 — sinus arrhythmia incidence (paediatric refractory sarcoma patients; 12 mg): 0%
Cc1cc(C(=O)NC(C)(C)COc2cccc3c2C(N)=NS(=O)(=O)N3)cc(C)n1 — revertant ratio (Salmonella typhimurium; Ames test, initial; TA1535; 50.0 µg/plate, together with: rat liver S9; baseline: solvent control): 0.8
